Measured values collected from several papers.
Compare with care: the assays were run in different laboratories. ± marks the error that the study gave.

COP(=O)(OC)OCc1ccc(C=O)o1 — inhibition (human sickle red blood cells; sickling; 2 mM, 2 h, 37 °C, hematocrit 20%, 4% oxygen): 8.4 ± 5.9%
CO[C@@H]1C[C@@H](C[C@H]2CC[C@H](C)[C@H]([C@@H](C)C(=O)O)O2)O[C@]2(O[C@](C)([C@H]3CC[C@@](C)([C@@H]4O[C@@H]([C@H]5O[C@@](O)(CO)[C@H](C)C[C@@H]5C)C[C@@H]4C)O3)C[C@H]2C)[C@@H]1C — Na+ content change (HK sheep red cells; 0.03 µM, pH 7.4, 37 °C, unit not given, added: low-K medium; reference: untreated cells): 18
CCOP(=S)(OCC)Oc1ccc([N+](=O)[O-])cc1 — inotropic effect (human iPSC-derived cardiomyocytes; calcium flux; 10 µM, 30 min): positive
PPAIIIT — mobile fraction CN-YFP (rat hippocampal neurons, AKAP150 RNAi, AKAP79 expression; FRAP; peptide, dendritic spines; dose not given, 32 °C): 61.6 ± 0.7%
Oc1cc(Cl)c(Cl)c(Cl)c1 — OCR (HepG2; Seahorse respirometry; concentration not given, 1 h, dosed at MMP IC50, added: 1 µM FCCP; reference: basal): 202.5 ± 1.47%
CC[C@H](C)[C@H](NC(=O)[C@H](CCCCN)NC(=O)[C@@H](NC(=O)[C@H](CCC(N)=O)NC(=O)[C@H](CCCNC(=N)N)NC(=O)[C@@H](N)CC(=O)O)[C@@H](C)CC)C(=O)N[C@@H](Cc1c[nH]c2ccccc12)C(=O)N[C@@H](Cc1ccccc1)C(=O)N[C@@H](CCC(N)=O)C(=O)N[C@@H](CC(N)=O)C(=O)N[C@@H](CCCNC(=N)N)C(=O)N[C@@H](CCCNC(=N)N)C(=O)N[C@@H](CCSC)C(=O)N[C@@H](CCCCN)C(=O)N[C@@H](Cc1c[nH]c2ccccc12)C(=O)N[C@@H](CCCCN)C(=O)N[C@@H](CCCCN)C(=O)N[C@H](C(=O)N[C@@H](C)C(=O)N[C@@H](CC(C)C)C(=O)N[C@@H](CC(=O)O)C(=O)N[C@@H](Cc1c[nH]c2ccccc12)C(=O)N[C@@H](CO)C(=O)N[C@@H](Cc1c[nH]c2ccccc12)C(=O)N[C@@H](CC(C)C)C(=O)N[C@@H](CCC(N)=O)C(=O)N[C@H](C(=O)N[C@@H](CCC(=O)O)C(=O)O)[C@@H](C)O)[C@@H](C)O — p38 MAPK pathway activation (rheumatoid arthritis synovial fibroblasts; concentration not given, added: IL-1β): no effect
CC(C)Oc1cccc(CC(=O)N2CCC[C@@](CC[N+]34CCC(c5ccccc5)(CC3)CC4)(c3ccc(Cl)c(Cl)c3)C2)c1.[Cl-] — ERK activity (HEK293 expressing NK1R; cytosolic ERK, antagonist, FRET biosensor; concentration not given, 30 min, added: substance P): inhibited
[Met(O)35]Aβ40 — apoptotic cells (rat primary cortical neurons; TUNEL; 10 µM, 48 h): 11.5 ± 0.7%
CC(C)c1ccc2c(c1)CC[C@H]1[C@](C)(CN)CCC[C@]21C — IC50 (UACC-903; cell growth or viability, MTS; 48 h): 1.19 µM
C=CCc1cccc(/C=N/NC(=O)CN2CCN(Cc3ccccc3)CC2)c1O — apoptotic cells increase (GL-1 cells; annexin V/PI; 20 µM, 24 h; reference: vehicle): ~10%
CCCCNC(=O)OCC#CI — lowest effective concentration (human iPSC-derived cardiomyocytes; beat peak frequency; 30 min): 10 µM
Oc1ccc(Cl)cc1Sc1cc(Cl)ccc1O — OCR (HepG2; Seahorse respirometry; concentration not given, 1 h, dosed at MMP IC50, added: 1 µM FCCP; reference: basal): 230.1 ± 2.17%
C=C1C(=O)O[C@H]2[C@H]1CCC(C)=C1CC[C@@](C)(O)[C@@H]12 — CC50 (M9-ENL1 leukaemia cells; annexin V/7-AAD flow cytometry; 24 h, 5% human plasma): 14.6 µM
C=C1C(=O)O[C@H]2[C@H]1CC/C(C)=C/CC[C@@]1(C)O[C@@H]21 — Emax (HEK293 expressing MOR; morphine-induced cAMP overshoot, HTRF cAMP; 1 µM, added: NKH 477 25 nM; reference: morphine control): 191%
COc1cc(/C=C/C(=O)CC(=O)/C=C/c2ccc(O)c(OC)c2)ccc1O — OCR (HepG2; Seahorse respirometry; concentration not given, 1 h, dosed at MMP IC50, added: 1 µM FCCP; reference: basal): 111 ± 2.82%
C[C@H]1C[C@H]2[C@@H]3CCC4=CC(=O)C=C[C@]4(C)[C@@]3(Cl)[C@@H](O)C[C@]2(C)[C@@]1(O)C(=O)CO — inhibition (A549 EGFR reporter cells; EGFR-induced granule formation; 10 µM, added: 500 nM EGF; negative means activation): -116%
C=CCN1CC[C@]23CCCC[C@H]2[C@H]1Cc1ccc(O)cc13 — Emax (HEK293 expressing MOR; morphine-induced cAMP overshoot, HTRF cAMP; 1 µM, added: NKH 477 25 nM; reference: morphine control): 70%
Cl[C@H]1[C@H](Cl)[C@@H](Cl)[C@@H](Cl)[C@H](Cl)[C@H]1Cl — lowest effective concentration (human iPSC-derived cardiomyocytes; beat peak frequency; 30 min): 30 µM
ryanodine — cytosolic Ca2+ (rat hypothalamic neurons; fura-2 imaging; 5 µM, 15 min, added: INSL7 C-peptide 100 nM): no effect
CCCN(CCC)CCc1cccc2c1CC(=O)N2 — Emax (HEK293 expressing MOR; morphine-induced cAMP overshoot, HTRF cAMP; 1 µM, added: NKH 477 25 nM; reference: morphine control): 92%
O=C(Nc1ccccc1)Nc1ccccc1 — OCR (HepG2; Seahorse respirometry; concentration not given, 1 h, dosed at MMP IC50, added: 1 µM FCCP; reference: basal): 194 ± 2.21%
CN(C)CCCNC(=O)/C=C/c1ccc2c(c1)OCO2 — EBV-EA activation (Raji; 500-fold of TPA (mol ratio), 48 h, added: TPA 32 pmol/mL; reference: TPA alone): 53.5 ± 1.4%
CC[C@H](C)[C@H](NC(=O)[C@@H](NC(=O)[C@@H](N)C(C)C)C(C)C)C(=O)N[C@@H](CC(C)C)C(N)=O — viability (PC-12; Aβ42-induced neurotoxicity, inhibitor, MTT; concentration not given, 6 h, 37 °C, peptide to Aβ42 1:2, added: Aβ42 2 µM; reference: untreated cells): 71.7%
amyloid beta-42 Met35-sulfone — viability decrease (rat primary cortical neurons; MTT; 10 µM, 48 h; reference: medium control): 40 ± 2%
CC[C@H](C)[C@H](NC(=O)[C@@H](NC(=O)[C@@H](N)Cc1ccccc1)C(C)C)C(=O)N[C@@H](C)C(N)=O — viability (PC-12; Aβ42-induced neurotoxicity, inhibitor, MTT; concentration not given, 6 h, 37 °C, peptide to Aβ42 1:2, added: Aβ42 2 µM; reference: untreated cells): 95.7%
CC(Oc1cc(C(F)(F)F)cc(C(F)(F)F)c1)C1CC(=O)CC(=O)C1 (stereo not shown) — neuroprotection (rat primary cortical neurons; viability; up to 100 µM, added: MG132 100 nM): positive
COC(=O)Nc1cccc(OC(=O)Nc2cccc(C)c2)c1 — OCR (HepG2; Seahorse respirometry; concentration not given, 1 h, dosed at MMP IC50, added: 1 µM FCCP; reference: basal): 174 ± 1.01%
Brc1ccc(Oc2ccc(Br)cc2Br)c(Br)c1 — inotropic effect (human iPSC-derived cardiomyocytes; calcium flux; 10 µM, 30 min): positive
CC[C@@]1(O)C(=O)OCc2c1cc1n(c2=O)Cc2cc3ccccc3nc2-1 — Km (Caco-2; efflux (basolateral to apical), substrate; without etoposide): 173 µM
CC[C@H](C)[C@H](NC(=O)[C@@H](NC(=O)CN)C(C)C)C(=O)N[C@@H](C)C(N)=O — viability (PC-12; Aβ42-induced neurotoxicity, inhibitor, MTT; concentration not given, 6 h, 37 °C, peptide to Aβ42 1:2, added: Aβ42 2 µM; reference: untreated cells): 94.3%
O=c1cc(-c2ccc(O)c(O)c2)oc2cc(O)cc(O)c12 — inhibition of latency reversal (J-Lat 10.6 cells; refers to: GFP-positive cells; 15 µM, 21 days, spontaneous, after wash-out; reference: DMSO 0.1%): 55.4 ± 1.4%

A few entries again:
Oc1cc(Cl)c(Cl)c(Cl)c1 — OCR (HepG2; Seahorse respirometry; concentration not given, 1 h, dosed at MMP IC50, added: 1 µM FCCP; reference: basal): 202.5 ± 1.47%
CC[C@H](C)[C@H](NC(=O)[C@H](CCCCN)NC(=O)[C@@H](NC(=O)[C@H](CCC(N)=O)NC(=O)[C@H](CCCNC(=N)N)NC(=O)[C@@H](N)CC(=O)O)[C@@H](C)CC)C(=O)N[C@@H](Cc1c[nH]c2ccccc12)C(=O)N[C@@H](Cc1ccccc1)C(=O)N[C@@H](CCC(N)=O)C(=O)N[C@@H](CC(N)=O)C(=O)N[C@@H](CCCNC(=N)N)C(=O)N[C@@H](CCCNC(=N)N)C(=O)N[C@@H](CCSC)C(=O)N[C@@H](CCCCN)C(=O)N[C@@H](Cc1c[nH]c2ccccc12)C(=O)N[C@@H](CCCCN)C(=O)N[C@@H](CCCCN)C(=O)N[C@H](C(=O)N[C@@H](C)C(=O)N[C@@H](CC(C)C)C(=O)N[C@@H](CC(=O)O)C(=O)N[C@@H](Cc1c[nH]c2ccccc12)C(=O)N[C@@H](CO)C(=O)N[C@@H](Cc1c[nH]c2ccccc12)C(=O)N[C@@H](CC(C)C)C(=O)N[C@@H](CCC(N)=O)C(=O)N[C@H](C(=O)N[C@@H](CCC(=O)O)C(=O)O)[C@@H](C)O)[C@@H](C)O — p38 MAPK pathway activation (rheumatoid arthritis synovial fibroblasts; concentration not given, added: IL-1β): no effect
CC(C)Oc1cccc(CC(=O)N2CCC[C@@](CC[N+]34CCC(c5ccccc5)(CC3)CC4)(c3ccc(Cl)c(Cl)c3)C2)c1.[Cl-] — ERK activity (HEK293 expressing NK1R; cytosolic ERK, antagonist, FRET biosensor; concentration not given, 30 min, added: substance P): inhibited
[Met(O)35]Aβ40 — apoptotic cells (rat primary cortical neurons; TUNEL; 10 µM, 48 h): 11.5 ± 0.7%
